Measurements collected from several papers.
A part holds a random share of what one study measured.

Block 1 — method: universal PBM; form: double-stranded DNA, one strand shown; medium: in vitro; concentration: 600 nM; reading: higher = stronger binding
Target: Sal-like protein 4, full length isoform A (SALL4, Homo sapiens, UniProt Q9UJQ4, residues 1-1053)
Chain of UniProt Q9UJQ4 (whole entry, looked up): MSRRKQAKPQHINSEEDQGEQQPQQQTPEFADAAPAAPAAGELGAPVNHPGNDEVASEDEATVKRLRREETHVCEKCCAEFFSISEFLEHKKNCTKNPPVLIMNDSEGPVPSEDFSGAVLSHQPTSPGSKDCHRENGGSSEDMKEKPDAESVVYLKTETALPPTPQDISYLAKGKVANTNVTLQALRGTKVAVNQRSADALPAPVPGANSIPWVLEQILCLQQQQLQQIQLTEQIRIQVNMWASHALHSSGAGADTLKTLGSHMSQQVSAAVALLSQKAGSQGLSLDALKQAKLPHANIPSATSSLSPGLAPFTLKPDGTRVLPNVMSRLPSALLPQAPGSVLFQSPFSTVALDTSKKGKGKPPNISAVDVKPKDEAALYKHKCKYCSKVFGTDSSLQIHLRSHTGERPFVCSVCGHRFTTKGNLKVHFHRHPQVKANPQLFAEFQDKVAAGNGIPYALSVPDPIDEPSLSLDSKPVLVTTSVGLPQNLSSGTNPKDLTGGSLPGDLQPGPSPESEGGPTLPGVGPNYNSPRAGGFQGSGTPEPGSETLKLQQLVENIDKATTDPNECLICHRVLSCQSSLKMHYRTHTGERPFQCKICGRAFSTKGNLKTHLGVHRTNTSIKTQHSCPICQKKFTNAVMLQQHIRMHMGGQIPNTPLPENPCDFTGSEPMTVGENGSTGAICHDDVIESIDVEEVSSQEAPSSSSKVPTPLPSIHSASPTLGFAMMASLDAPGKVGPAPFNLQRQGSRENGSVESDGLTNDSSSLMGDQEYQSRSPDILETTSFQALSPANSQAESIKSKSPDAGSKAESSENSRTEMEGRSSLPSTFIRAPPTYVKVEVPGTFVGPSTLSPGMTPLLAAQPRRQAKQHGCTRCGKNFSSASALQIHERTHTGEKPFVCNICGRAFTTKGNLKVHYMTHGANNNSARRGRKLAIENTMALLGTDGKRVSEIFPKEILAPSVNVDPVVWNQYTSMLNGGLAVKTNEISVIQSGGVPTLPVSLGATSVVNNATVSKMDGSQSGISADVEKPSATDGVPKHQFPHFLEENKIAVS
Setting: 8-mer, flanks averaged, mean of replicates
| Strand | E-score |
| --- | --- |
| TCTTTACA | 0.159 |
| AAGCACGA | -0.0094 |
| ATTTTGTC | 0.25 |
| TCCGACAA | 0.0293 |

Block 2 — method: RNA Bind-n-Seq; form: RNA; medium: in vitro; concentration: 365 nM; reference: no-protein control; reading: higher = stronger binding
Target: RNA binding protein fox-1 homolog 2, RRM domain, GST-SBP tag (RBFOX2, Homo sapiens, UniProt O43251-10, residues 100-194)
Setting: natural RNA segment, single round, ends assumed
Shared flanks, not repeated: GGGAGUUCUACAGUCCGACGAUC … UGGAAUUCUCGGGUGCCAA
| Strand | RBNS enrichment (R) |
| --- | --- |
| GAUUAUAGUCUUGAGGUUCAUGUGAAGCCAGUGGUGUUAACUUACUUUGAUUUCCUUGUUCAGGUCAGGGCCUGGAACGCCUGUGCGGGGAGGUCACUCAAUUCAAAAUU | 0.699 |
| GUAGGUGCUCAACAAAUUUAUUGAAUGAAUGAGUGAAUGGAAAAACUGGGAGAGUCAAAAGUGAGCAGAAGCUCUCCAUUUCUACUUCUGUCACAAACCACAUUAAAUUG | 1.33 |
| AGGGGAUGACCUGUGGGCGACACAGAAGAGAAGACACCUGCAGGAGGCGACGGUGGCCCCAGGAUGGGGAGCAGGCCUCUGCUGCCUGUUCCCUCUGCCCUUUCUCUGGC | 0.392 |
| AGCCUCACCCGUCAUUUCAUUCUCUAUCCACUGUCUGUCACCUCCAGCAUGGAAAGGUUCAGCUGGAGACAUUUCUGAAACAGACUACUUUACUUUGAAGCAAACGUCUU | 0.785 |
| CAUUUAUUCUUCUUUUCCAAUUGAACUUUCACAUAGCACAGAAAAAAUUCAAACUGCCUAUAUUGAUAAAACCAUACAGUGAGCCAGCCUUGCAGUAGGCAGUAGACUAU | 0.485 |
| CUGUGGUGGGUGGCAUAACAAUAAAACUUACUAAGUGGUUAUAGGAUAAACAAACAGUUAUUAGGUCCUUUUACUUUUUUGUUUUGUUUCUAUCUUGUUUUUUUUUUUGU | 0.755 |

Block 3 — method: protein binding microarray; form: double-stranded DNA, one strand shown; medium: in vitro; concentration: not given; reference: not given; reading: higher = stronger binding
Target: Histone acetyltransferase KAT6A, winged helix 2, GST fusion (KAT6A, Homo sapiens, UniProt Q92794, residues 85-181)
Setting: 8-mer, flanks averaged, mean of 2 arrays, mostly near background
Target sequence (chain): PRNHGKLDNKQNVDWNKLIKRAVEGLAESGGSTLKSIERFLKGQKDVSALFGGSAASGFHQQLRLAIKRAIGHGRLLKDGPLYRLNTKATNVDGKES
| Strand | E-score |
| --- | --- |
| TATGTCCA | -0.109 |
| CTCCCTAA | 0.00611 |
| CTATCCCA | -0.111 |
| CATGGTTC | 0.0465 |

Further values, each from its own experiment
| Molecule | target | test | test system | conditions | how to read | measurement | value |
| --- | --- | --- | --- | --- | --- | --- | --- |
| PhoQ, residues 284 288 289 292 302 303 SSTMSV | PhoP, residues 12 14 15 18 19 IQSYL (Escherichia coli, UniProt P23836) | Sort-seq, refers to: YFP reporter | E. coli | PhoQ-PhoP variant library, with: 10 µM Mg2+ | reference: high Mg2+ state, higher = stronger signaling | fold induction | 16 |

Some of these lines once more (block 1):
| Strand | E-score |
| --- | --- |
| TCTTTACA | 0.159 |
